{"sequences": {"note": "Amino acid sequences for entries named in this document (tags omitted). Residues count along the entry.", "UniProt P0DKX7, 1-373 limits assumed": "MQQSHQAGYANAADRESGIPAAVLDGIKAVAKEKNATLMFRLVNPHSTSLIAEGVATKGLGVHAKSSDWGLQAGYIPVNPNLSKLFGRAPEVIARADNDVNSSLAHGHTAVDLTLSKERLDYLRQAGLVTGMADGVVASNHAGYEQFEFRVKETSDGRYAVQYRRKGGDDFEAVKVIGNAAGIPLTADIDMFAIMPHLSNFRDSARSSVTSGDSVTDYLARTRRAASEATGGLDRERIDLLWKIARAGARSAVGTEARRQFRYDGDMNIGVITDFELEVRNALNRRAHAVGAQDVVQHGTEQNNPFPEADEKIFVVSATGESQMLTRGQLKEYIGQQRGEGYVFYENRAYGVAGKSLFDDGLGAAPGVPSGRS", "UniProt O00748, 27-559 limits assumed": "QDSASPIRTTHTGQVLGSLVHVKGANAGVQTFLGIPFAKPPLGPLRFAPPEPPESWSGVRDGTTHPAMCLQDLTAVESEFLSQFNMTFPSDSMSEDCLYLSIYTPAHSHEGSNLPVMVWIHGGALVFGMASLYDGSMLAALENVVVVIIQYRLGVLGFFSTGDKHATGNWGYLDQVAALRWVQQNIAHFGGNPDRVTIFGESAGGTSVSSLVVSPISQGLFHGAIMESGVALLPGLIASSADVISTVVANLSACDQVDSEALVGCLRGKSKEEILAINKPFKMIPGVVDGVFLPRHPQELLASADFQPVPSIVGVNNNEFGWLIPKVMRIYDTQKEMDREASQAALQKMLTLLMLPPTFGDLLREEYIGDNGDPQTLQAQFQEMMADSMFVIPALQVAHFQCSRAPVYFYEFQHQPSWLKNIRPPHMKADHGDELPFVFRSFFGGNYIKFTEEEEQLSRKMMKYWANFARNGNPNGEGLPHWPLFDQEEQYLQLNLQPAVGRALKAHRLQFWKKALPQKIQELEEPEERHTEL", "UniProt P41240, 82-171 limits assumed": "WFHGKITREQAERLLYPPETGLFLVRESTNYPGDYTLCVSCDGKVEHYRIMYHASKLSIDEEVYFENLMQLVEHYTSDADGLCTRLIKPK", "UniProt P21917, whole entry": "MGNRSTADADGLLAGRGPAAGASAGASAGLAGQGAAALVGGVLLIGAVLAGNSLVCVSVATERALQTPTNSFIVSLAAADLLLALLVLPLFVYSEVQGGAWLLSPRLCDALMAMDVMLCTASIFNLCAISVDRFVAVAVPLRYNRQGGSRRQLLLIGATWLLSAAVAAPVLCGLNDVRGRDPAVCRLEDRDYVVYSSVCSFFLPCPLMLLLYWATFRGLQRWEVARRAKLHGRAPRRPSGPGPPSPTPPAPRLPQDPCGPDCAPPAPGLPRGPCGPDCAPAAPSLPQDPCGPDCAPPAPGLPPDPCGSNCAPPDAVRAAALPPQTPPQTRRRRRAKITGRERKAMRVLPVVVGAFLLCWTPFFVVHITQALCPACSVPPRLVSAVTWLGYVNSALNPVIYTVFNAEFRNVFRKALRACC", "UniProt Q05941, 23-502 limits assumed": "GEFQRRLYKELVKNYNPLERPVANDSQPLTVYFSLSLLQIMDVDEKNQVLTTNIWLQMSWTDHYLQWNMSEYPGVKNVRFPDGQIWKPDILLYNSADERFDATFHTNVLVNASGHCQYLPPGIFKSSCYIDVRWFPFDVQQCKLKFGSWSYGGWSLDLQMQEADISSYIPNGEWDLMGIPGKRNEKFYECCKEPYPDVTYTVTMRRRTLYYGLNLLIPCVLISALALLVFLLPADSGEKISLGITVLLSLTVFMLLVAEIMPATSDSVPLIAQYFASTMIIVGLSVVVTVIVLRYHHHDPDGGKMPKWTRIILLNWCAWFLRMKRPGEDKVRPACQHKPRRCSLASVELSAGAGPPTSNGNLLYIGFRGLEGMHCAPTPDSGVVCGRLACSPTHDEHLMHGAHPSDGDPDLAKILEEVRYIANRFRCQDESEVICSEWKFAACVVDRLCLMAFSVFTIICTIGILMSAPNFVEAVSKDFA", "UniProt Q99816, whole entry, looked up": "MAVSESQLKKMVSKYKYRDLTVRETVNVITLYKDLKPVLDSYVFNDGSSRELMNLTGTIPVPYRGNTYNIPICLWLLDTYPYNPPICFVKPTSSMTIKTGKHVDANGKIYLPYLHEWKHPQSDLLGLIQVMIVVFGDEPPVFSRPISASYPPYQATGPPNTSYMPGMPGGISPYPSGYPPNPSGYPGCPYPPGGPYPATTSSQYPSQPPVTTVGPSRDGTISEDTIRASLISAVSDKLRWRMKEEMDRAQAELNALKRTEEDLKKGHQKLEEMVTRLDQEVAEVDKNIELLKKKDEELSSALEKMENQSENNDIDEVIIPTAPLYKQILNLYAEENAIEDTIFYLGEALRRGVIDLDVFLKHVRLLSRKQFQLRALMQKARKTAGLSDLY"}, "data": "Values quoted from earlier work, collected from citations in different studies", "cya": "cya (Bordetella pertussis, UniProt P0DKX7)", "HLA class I histocompatibility antigen, A alpha chain allele A*25:01": "HLA class I histocompatibility antigen, A alpha chain, allele A*25:01 (Homo sapiens, UniProt P04439)", "HLA class I histocompatibility antigen, A alpha chain allele A*26:03": "HLA class I histocompatibility antigen, A alpha chain, allele A*26:03 (Homo sapiens, UniProt P04439)", "note": "Each line is one published result; not all experiments were run side by side. ± marks the error that the study gave."}
{"Structure (SMILES)": "CCCN(CCC)c1c([N+](=O)[O-])cc(S(=O)(=O)Nc2ccccc2)cc1[N+](=O)[O-]", "tested on": "Leishmania donovani", "test": "cell growth", "test system": "axenic amastigotes", "measurement": "IC50", "result": "2.3 ± 0.5 µM"}
{"Structure (SMILES)": "CNc1ccccc1C(=O)O[C@H]1[C@@H](O)[C@H](n2cnc3c(=O)[nH]cnc32)O[C@@H]1COP(=O)(O)OP(=O)(O)OP(=O)(O)O", "tested on": "cya", "test": "inhibitor", "measurement": "Ki", "result": "0.6 ± 0.1 µM"}
{"Structure (SMILES)": "Cc1cc(C)c(S(=O)(=O)Nc2ccccc2)cc1S(=O)(=O)Nc1ccccc1", "tested on": "Cocaine esterase (CES2, Homo sapiens, UniProt O00748)", "test": "enzyme activity, inhibitor", "conditions": "with: CPT-11 substrate", "measurement": "Ki", "result": "> 100 µM"}
{"Structure (SMILES)": "CC[C@H](C)[C@H](NC(=O)[C@H](CO)NC(=O)[C@H](Cc1ccc(O)cc1)NC(=O)[C@H](CCC(N)=O)NC(=O)[C@H](CC(C)C)NC(=O)[C@@H](N)Cc1ccc(O)cc1)C(=O)N[C@@H](CO)C(=O)N[C@H](C(=O)N[C@@H](C)C(=O)O)[C@@H](C)O", "tested on": "HLA class I histocompatibility antigen, A alpha chain allele A*25:01", "measurement": "IC50", "result": "> 20 µM"}
{"Structure (SMILES)": "CC[C@H](C)[C@H](NC(=O)[C@@H](NC(=O)[C@@H](NC(=O)[C@@H](NC(=O)[C@@H]1CCCN1C(=O)[C@H](Cc1c[nH]cn1)NC(=O)[C@@H]1CCCN1C(=O)CN)C(C)(C)C)[C@@H](C)CC)C(C)(C)C)C(=O)N[C@H](C(=O)NCC(=O)N1CCC[C@H]1C(=O)N[C@@H](Cc1c[nH]cn1)C(=O)N[C@@H](CCC(=O)O)C(=O)N[C@@H](CCC(=O)O)C(=O)O)[C@@H](C)O", "tested on": "Protein phosphatase 3 catalytic subunit alpha, with calcineurin B (PPP3CA, Homo sapiens, UniProt Q08209)", "test": "binding", "measurement": "Kd", "result": "0.05 µM"}
{"Structure (SMILES)": "Cc1cc(O)cc(C)c1C[C@H](N)C(=O)N[C@H](CCCNC(=N)N)C(=O)N[C@@H](Cc1ccccc1)C(=O)N[C@@H](CCCCN)C(=O)NCCNC(=O)[C@H](Cc1ccccc1)NC(=O)[C@H](CC1CCCCC1)NC[C@@H]1Cc2ccccc2CN1C(=O)[C@@H](N)Cc1ccc(O)cc1", "tested on": "delta opioid receptor", "test": "muscle contraction, antagonist", "test system": "mouse vas deferens", "measurement": "Ke", "result": "2.4 ± 0.58 nM"}
{"Structure (SMILES)": "Cc1cn([C@@H]2CC[C@H](OC(C(=O)O)P(=O)(O)O)C2)c(=O)[nH]c1=O (relative stereo)", "tested on": "Gag-Pol polyprotein, reverse transcriptase (gag-pol, Human immunodeficiency virus 1, UniProt P03366)", "test": "reverse transcriptase activity, inhibitor", "conditions": "with: poly(rA)·oligo(dT) template/primer", "measurement": "IC50", "result": "0.4 µM"}
{"Structure (SMILES)": "COc1cc(CCNCc2cc(OC)c(OC)c(OC)c2)c(OC)cc1Cl", "tested on": "5-HT2A receptor", "measurement": "Ki", "result": "0.038 µM"}
{"Structure (SMILES)": "CC(C)C[C@H](NC(=O)[C@H](CC(=O)O)NC(=O)[C@H](CCCCN)NC(=O)[C@H](CC(C)C)NC(=O)[C@H](CCCNC(=N)N)NC(=O)[C@H](CCCNC(=N)N)NC(=O)[C@H](CCCCN)NC(=O)[C@H](Cc1ccccc1)NC(=O)[C@@H](N)CCC(=O)O)C(=O)O", "tested on": "HLA class I histocompatibility antigen, A alpha chain allele A*26:03", "measurement": "IC50", "result": "> 20 µM"}
{"Structure (SMILES)": "O=C(Nc1cccc(C2=NCCN2)c1)c1ccc(-c2ccc(C(=O)Nc3cccc(C4=NCCN4)c3)cc2)cc1", "test": "DSC", "test system": "AT-rich DNA dodecamer duplex", "scale": "higher = stronger binding", "measurement": "ΔTm", "result": "11 °C"}
{"Structure (SMILES)": "CC[C@H](NC(=O)[C@H](CCCNC(=N)N)NC(=O)CCNC(=O)CCNC(=O)COCCOCCNC(=O)CCCC[C@@H]1SC[C@@H]2NC(=O)N[C@@H]21)C(=O)N[C@@H](Cc1ccc(OP(=O)(O)O)cc1)C(=O)N[C@@H](CCCNC(=N)N)C(=O)N[C@@H](CO)C(=O)N[C@H](C(=O)N[C@@H](CC(C)C)C(=O)N[C@@H](CC(N)=O)C(N)=O)[C@@H](C)CC", "tested on": "Tyrosine-protein kinase CSK, SH2 domain (CSK, Homo sapiens, UniProt P41240)", "test": "SPR", "conditions": "with: SH2 domain", "measurement": "Kd", "result": "4.1 ± 0.2 µM"}
{"Structure (SMILES)": "Clc1ccc(N2CCN(Cc3cnn4ccccc34)CC2)cc1", "tested on": "DRD4 (Homo sapiens, UniProt P21917)", "test": "binding", "measurement": "Ki", "result": "0.0031 ± 0.0003 µM"}
{"Structure (SMILES)": "CC[C@H](C)[C@H](NC(=O)[C@H](CO)NC(=O)[C@@H]1CCCN1C(=O)[C@@H](NC(=O)[C@H](CC(N)=O)NC(=O)[C@H](CC(C)C)NC(=O)[C@H](CCSC)NC(=O)[C@H](CCCCN)NC(=O)[C@H](CC(C)C)NC(=O)[C@@H]1CCCN1C(=O)[C@@H](N)CC(C)C)[C@@H](C)CC)C(=O)N[C@@H](CC(N)=O)C(=O)N[C@H](C(=O)N[C@@H](Cc1c[nH]cn1)C(=O)O)C(C)C", "tested on": "HLA class I histocompatibility antigen, A alpha chain allele A*25:01", "measurement": "IC50", "result": "> 20 µM"}
{"Structure (SMILES)": "COCCC1CC1c1cncc(OC[C@@H]2CCN2)c1 (stereo partly drawn)", "tested on": "Chrna7 (Rattus norvegicus, UniProt Q05941)", "test": "binding", "measurement": "Ki", "result": "> 10 µM"}
{"Structure (SMILES)": "CC(C)C[C@H](NC(=O)[C@H](CO)NC(=O)[C@H](CCCCN)NC(=O)[C@H](CC(C)C)NC(=O)[C@H](CCCCN)NC(=O)[C@@H](N)CCC(=O)O)C(=O)N[C@@H](Cc1ccc(O)cc1)C(=O)N[C@@H](CC(N)=O)C(=O)N[C@H](C(=O)N[C@H](C(=O)O)C(C)C)[C@@H](C)O", "tested on": "HLA class I histocompatibility antigen, A alpha chain allele A*26:03", "measurement": "IC50", "result": "> 20 µM"}
{"Structure (SMILES)": "CC(C)[C@H](NC(=O)[C@H](CCCNC(=N)N)NC(=O)CN)C(=O)N[C@H](C(=O)N[C@@H](CCC(=O)O)C(=O)N1CCC[C@H]1C(=O)N[C@@H](CO)C(=O)N[C@@H](C)C(=O)N1CCC[C@H]1C(=O)N1CCC[C@H]1C(=O)N[C@@H](Cc1c[nH]c2ccccc12)C(=O)N[C@@H](CCC(=O)O)C(=O)NCC(=O)N1CCC[C@H]1C(=O)O)C(C)C", "tested on": "Tumor susceptibility gene 101 protein, UEV domain (Homo sapiens, UniProt Q99816)", "conditions": "25 °C", "measurement": "Kd", "result": "2.3 µM"}
{"Structure (SMILES)": "Cc1cc(Nc2ccc(S(F)(F)(F)(F)F)cc2)n2nc(C(C)(F)F)nc2n1", "tested on": "Plasmodium falciparum", "test system": "mouse", "conditions": "twice daily dosing", "measurement": "ED90", "result": "3 mg/kg/day"}
{"Structure (SMILES)": "CNc1ccccc1C(=O)O[C@H]1[C@@H](O)[C@H](n2ccc(N)nc2=O)O[C@@H]1COP(=O)(O)OP(=O)(O)OP(=O)(O)O", "tested on": "cya", "test": "inhibitor", "measurement": "Ki", "result": "1.1 ± 0.1 µM"}
{"note": "For quick reference, copied from above:"}
{"Structure (SMILES)": "Cc1cc(O)cc(C)c1C[C@H](N)C(=O)N[C@H](CCCNC(=N)N)C(=O)N[C@@H](Cc1ccccc1)C(=O)N[C@@H](CCCCN)C(=O)NCCNC(=O)[C@H](Cc1ccccc1)NC(=O)[C@H](CC1CCCCC1)NC[C@@H]1Cc2ccccc2CN1C(=O)[C@@H](N)Cc1ccc(O)cc1", "tested on": "delta opioid receptor", "test": "muscle contraction, antagonist", "test system": "mouse vas deferens", "measurement": "Ke", "result": "2.4 ± 0.58 nM"}
{"Structure (SMILES)": "Cc1cc(C)c(S(=O)(=O)Nc2ccccc2)cc1S(=O)(=O)Nc1ccccc1", "tested on": "Cocaine esterase (CES2, Homo sapiens, UniProt O00748)", "test": "enzyme activity, inhibitor", "conditions": "with: CPT-11 substrate", "measurement": "Ki", "result": "> 100 µM"}
